Measurements from different studies.
Protocols differ between the studies behind these lines. ± marks the error that the study gave.

SMILES	assay	system	setting	scale	quantity	result
CCCC[C@H](NC(=O)CN1CCC(NC(=O)CN2CCN(CC(N)=O)CCN(CC(N)=O)CCN(CC(N)=O)CC2)CC1)C(=O)N[C@H]1CC(=O)NCCCC[C@@H](C(N)=O)NC(=O)[C@H](Cc2c[nH]c3ccccc23)NC(=O)[C@H](CCCNC(=N)N)NC(=O)[C@@H](Cc2ccccc2)NC(=O)[C@H](Cc2c[nH]cn2)NC1=O	iTLC	human serum	72 h, 37 °C, lead-203-labelled		intact complex	100%
CC(C)C[C@H](NC(=O)[C@@H]1CCCN1C(=O)[C@H](CCCCN)NC(=O)[C@@H](N)CO)C(=O)N1CCC[C@H]1C(=O)N[C@@H](CCC(=O)O)C(=O)N[C@H](C(=O)N[C@H](C(=O)N[C@@H](CC(=O)O)C(=O)N[C@@H](CCC(=O)O)C(=O)N[C@@H](Cc1ccc(O)cc1)C(=O)NCC(=O)NCCOCCOCCOCCOCCC(=O)N[C@@H](CCCCNC(=O)CC[C@H](C(=O)O)N1CCN(CC(=O)O)CCN(CC(=O)O)CC1)C(=O)N1CCN(CCCN(C)c2ccc3nccc(C(=O)NCC(=O)N4CC(F)(F)C[C@H]4C#N)c3c2)CC1)[C@@H](C)O)C(C)C [copper-64 labelled]	PET	NMRI nude mouse, HT-1080 xenograft, hFAP-negative tumour	intravenous		SUVmean	0.82 ± 0.13 SUV
CC[C@H](C)[C@@H]([C@@H](CC(=O)N1CCC[C@H]1[C@H](OC)[C@@H](C)C(=O)N[C@H](C)[C@@H](O)c1ccccc1)OC)N(C)C(=O)[C@@H](NC(=O)[C@H](C(C)C)N(C)C(=O)OCc1ccc(NC(=O)[C@H](CCCNC(N)=O)NC(=O)[C@@H](NC(=O)CCCCCN2C(=O)CC(SC[C@H](NC(=O)[C@H](CC(=O)O)NC(=O)[C@H](Cc3ccc(O)cc3)NC(=O)[C@H](Cc3c[nH]c4ccccc34)NC(=O)[C@@H](N)CCCNC(=N)N)C(=O)O)C2=O)C(C)C)cc1)C(C)C (stereo partly drawn)		C57BL/6 mouse, healthy, kidney	intraperitoneal, 2.5 mg/kg, 6 h		concentration	not detected
O=C1NC2(CC2)COc2ncc(F)cc2[C@H]2COCCN2c2ccn3ncc1c3n2		Sprague-Dawley rat, male, serum	oral, 20 mg/kg/day, 4 weeks daily, end of recovery period		alanine aminotransferase activity	37.2 ± 13.7 U/L
CC(=O)N[C@@H](CC(C)C)C(=O)N[C@H](C(=O)N[C@@H](Cc1ccccc1)C(=O)N[C@]1(C)CCCCCC/C=C/CCC[C@@](C)(C(=O)N[C@@H](C)C(=O)N[C@@H](C)C(=O)N[C@@H](C)C(=O)N[C@@H](C)C(=O)N[C@@H](C)C(=O)N[C@H](C)C(N)=O)NC(=O)[C@H](CC(C)C)NC(=O)[C@H](CCCCNC(=O)CCNC(=O)C[C@@H]2N=C(c3ccc(Cl)cc3)c3c(sc(C)c3C)-n3c(C)nnc32)NC(=O)[C@H](C)NC(=O)[C@H](Cc2c[nH]c3ccccc23)NC(=O)[C@H](Cc2ccc(O)cc2)NC(=O)[C@H](C)NC1=O)[C@@H](C)O		C57BL/6J mice, male, plasma	intravenous, 10 mg/kg, 5% DMSO, PEG400, Tween-80, methylcellulose		Cmax	31.2 µM
CC(C)C[C@H](NC(=O)[C@@H](N)Cc1ccccc1)C(=O)N[C@@H](C)C(=O)N[C@H]1CSCc2cccc(n2)CSC[C@@H](C(=O)N[C@H](C(=O)NCC(=O)N[C@@H](CO)C(=O)N[C@@H](Cc2c[nH]c3ccccc23)C(=O)N[C@@H](CCCCNC(=O)CN2CCN(CC(=O)O)CCN(CC(=O)O)CCN(CC(=O)O)CC2)C(N)=O)[C@@H](C)O)NC(=O)[C@H](Cc2c[nH]cn2)NC(=O)[C@H]([C@@H](C)O)NC(=O)[C@H](CCC(=O)O)NC(=O)[C@@H]2CCCN2C1=O [gallium-68 labelled]	radio-HPLC	fetal bovine serum	2 h, 37 °C		remaining intact compound	> 99%
N=C(N)NCCC[C@@H]1NC(=O)[C@H](CCCCNC(=O)CCC(NC(=S)Nc2ccc(CC3CN(CC(=O)O)CCN(CC(=O)O)CCN(CC(=O)O)CCN3CC(=O)O)cc2)C(=O)NCCCC[C@@H]2NC(=O)[C@@H](Cc3ccc(O)cc3)NC(=O)[C@H](CC(=O)O)NC(=O)CNC(=O)[C@H](CCCNC(=N)N)NC2=O)NC(=O)[C@@H](Cc2ccc(O)cc2)NC(=O)[C@H](CC(=O)O)NC(=O)CNC1=O (stereo partly drawn) [scandium-44 labelled]	ex vivo γ-counting	female athymic nude mice, U-87 MG xenograft, spleen	intravenous, 4 h		tissue uptake	0.83 ± 0.45 %ID/g
CC(C)C[C@H](NC(=O)[C@@H]1CCCN1C(=O)[C@H](CCCCN)NC(=O)[C@@H](N)CO)C(=O)N1CCC[C@H]1C(=O)N[C@@H](CCC(=O)O)C(=O)N[C@H](C(=O)N[C@H](C(=O)N[C@@H](CC(=O)O)C(=O)N[C@@H](CCC(=O)O)C(=O)N[C@@H](Cc1ccc(O)cc1)C(=O)NCC(=O)NCCOCCOCCOCCOCCOCCOCCOCCOCCOCCOCCOCCOCCC(=O)N[C@@H](CCCCNC(=O)CC[C@H](C(=O)O)N1CCN(CC(=O)O)CCN(CC(=O)O)CC1)C(=O)N1CCN(CCCN(C)c2ccc3nccc(C(=O)NCC(=O)N4CC(F)(F)C[C@H]4C#N)c3c2)CC1)[C@@H](C)O)C(C)C [copper-64 labelled]	PET	NMRI nude mouse, HT-1080 xenograft, hFAP-negative tumour	intravenous		SUVmean	1.06 ± 0.44 SUV
CCCC[C@H](NC(=O)[C@H](CCC(=O)O)NC(=O)[C@H](CCCCN)NC(=O)[C@H](CO)NC(=O)[C@H](Cc1ccccc1)NC(C)=O)C(=O)N[C@@H](CCCNC(=N)N)C(=O)N[C@@H](CC(N)=O)C(=O)N[C@@H](CCCNC(=N)N)C(=O)N[C@@H](Cc1ccc(O)cc1)C(=O)N[C@@H](Cc1c[nH]c2ccccc12)C(=O)N[C@@H](CCCC(=O)NCCN(CC(=O)NCCN(CC(=O)NCCN(CC(=O)NCCN(CC(=O)N[C@@H](CCCNC(=N)N)C(N)=O)C(=O)Cn1cnc2c(=O)[nH]c(N)nc21)C(=O)Cn1ccc(N)nc1=O)C(=O)Cn1ccc(N)nc1=O)C(=O)Cn1cnc2c(=O)[nH]c(N)nc21)C(=O)N[C@@H](CS)C(=O)N[C@@H](C)C(=O)N[C@@H](CC(C)C)C(=O)N[C@@H](CC(=O)O)C(=O)N1CCC[C@H]1C(=O)N[C@@H](CC(N)=O)C(=O)N[C@@H](CC(C)C)C(=O)N[C@H](C(=O)N[C@@H](CC(N)=O)C(=O)N[C@@H](CCC(N)=O)C(=O)N[C@@H](CCC(N)=O)C(=O)N[C@@H](CCCCN)C(=O)N[C@@H](CCCNC(=N)N)C(=O)N[C@@H](C)C(=O)N[C@@H](CCCCNC(=O)CN(CCNC(=O)CN(CCNC(=O)CN(CCNC(=O)CN(CCNC(=O)[C@H](CCCNC(=N)N)NC(C)=O)C(=O)Cn1ccc(N)nc1=O)C(=O)Cn1cnc2c(=O)[nH]c(N)nc21)C(=O)Cn1cnc2c(=O)[nH]c(N)nc21)C(=O)Cn1ccc(N)nc1=O)C(=O)N[C@H](C(=O)N[C@@H](CCCNC(=N)N)C(=O)N[C@@H](CO)C(=O)N[C@H](C(=O)N[C@@H](Cc1ccc(O)cc1)C(=O)N[C@@H](CCC(=O)O)C(=O)N[C@@H](CCC(=O)O)C(=O)NCC(=O)N[C@@H](CCC(=O)O)C(N)=O)[C@@H](C)CC)[C@@H](C)CC)[C@@H](C)O			37 °C, added: trypsin	reference: three-helix ZHER2:342 affibody	half-life ratio	~1.5 fold

Some of these lines once more:
SMILES	assay	system	setting	scale	quantity	result
CC(=O)N[C@@H](CC(C)C)C(=O)N[C@H](C(=O)N[C@@H](Cc1ccccc1)C(=O)N[C@]1(C)CCCCCC/C=C/CCC[C@@](C)(C(=O)N[C@@H](C)C(=O)N[C@@H](C)C(=O)N[C@@H](C)C(=O)N[C@@H](C)C(=O)N[C@@H](C)C(=O)N[C@H](C)C(N)=O)NC(=O)[C@H](CC(C)C)NC(=O)[C@H](CCCCNC(=O)CCNC(=O)C[C@@H]2N=C(c3ccc(Cl)cc3)c3c(sc(C)c3C)-n3c(C)nnc32)NC(=O)[C@H](C)NC(=O)[C@H](Cc2c[nH]c3ccccc23)NC(=O)[C@H](Cc2ccc(O)cc2)NC(=O)[C@H](C)NC1=O)[C@@H](C)O		C57BL/6J mice, male, plasma	intravenous, 10 mg/kg, 5% DMSO, PEG400, Tween-80, methylcellulose		Cmax	31.2 µM
